Measurements of several laboratories.
Each line is one published result; not all experiments were run side by side. Values joined by “and” are separate records of one study, mostly repeats; a detail may differ. Numbers after ± are the reported error.
GAP50: Glideosome-associated protein 50 (GAP50, Plasmodium falciparum, UniProt Q8I2X3)
UniProt Q8I2X3, sequence (whole entry, looked up): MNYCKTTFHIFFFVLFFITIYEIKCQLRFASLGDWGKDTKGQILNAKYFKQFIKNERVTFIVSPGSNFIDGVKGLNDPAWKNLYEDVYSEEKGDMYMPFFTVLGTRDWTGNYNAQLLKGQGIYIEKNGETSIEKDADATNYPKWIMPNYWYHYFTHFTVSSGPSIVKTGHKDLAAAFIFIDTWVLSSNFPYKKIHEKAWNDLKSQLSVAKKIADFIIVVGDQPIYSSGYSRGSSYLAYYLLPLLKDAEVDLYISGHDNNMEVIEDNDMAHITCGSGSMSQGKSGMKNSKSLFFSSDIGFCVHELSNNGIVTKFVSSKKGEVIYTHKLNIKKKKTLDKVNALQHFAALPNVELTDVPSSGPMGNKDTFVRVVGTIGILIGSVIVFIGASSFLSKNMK
bglA: bglA (Thermotoga maritima, UniProt Q08638)
UniProt Q08638, sequence (whole entry, looked up): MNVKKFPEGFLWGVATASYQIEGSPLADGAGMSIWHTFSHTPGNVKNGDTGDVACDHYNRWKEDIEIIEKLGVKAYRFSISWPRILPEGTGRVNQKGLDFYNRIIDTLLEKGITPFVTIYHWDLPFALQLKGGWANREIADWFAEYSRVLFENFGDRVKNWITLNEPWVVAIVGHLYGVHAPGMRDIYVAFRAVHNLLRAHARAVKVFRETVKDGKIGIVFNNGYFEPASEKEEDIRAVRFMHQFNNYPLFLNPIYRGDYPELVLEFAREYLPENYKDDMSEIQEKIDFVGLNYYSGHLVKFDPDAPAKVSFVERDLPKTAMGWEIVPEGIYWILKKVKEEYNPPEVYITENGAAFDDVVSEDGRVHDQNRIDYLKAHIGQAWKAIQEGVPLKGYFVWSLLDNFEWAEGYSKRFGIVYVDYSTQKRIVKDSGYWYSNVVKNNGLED
Peptidyl-prolyl cis-trans isomerase FKBP1B: Peptidyl-prolyl cis-trans isomerase FKBP1B (Homo sapiens, UniProt P68106)
UniProt P68106, sequence (whole entry, looked up): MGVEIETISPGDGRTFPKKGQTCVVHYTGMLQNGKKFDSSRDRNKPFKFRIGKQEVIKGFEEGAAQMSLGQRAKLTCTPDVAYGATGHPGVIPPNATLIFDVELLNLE
clpP: ATP-dependent Clp protease proteolytic subunit (clpP, Escherichia coli, UniProt P0A6G7)
UniProt P0A6G7, sequence (whole entry, looked up): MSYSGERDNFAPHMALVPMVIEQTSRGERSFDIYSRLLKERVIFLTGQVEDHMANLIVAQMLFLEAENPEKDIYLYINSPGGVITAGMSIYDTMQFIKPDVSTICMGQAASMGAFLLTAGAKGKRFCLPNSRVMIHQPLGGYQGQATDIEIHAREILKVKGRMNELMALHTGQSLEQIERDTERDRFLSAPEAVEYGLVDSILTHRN
BRD9: Bromodomain-containing protein 9 (BRD9, Homo sapiens, UniProt Q9H8M2)
UniProt Q9H8M2, sequence (whole entry, looked up): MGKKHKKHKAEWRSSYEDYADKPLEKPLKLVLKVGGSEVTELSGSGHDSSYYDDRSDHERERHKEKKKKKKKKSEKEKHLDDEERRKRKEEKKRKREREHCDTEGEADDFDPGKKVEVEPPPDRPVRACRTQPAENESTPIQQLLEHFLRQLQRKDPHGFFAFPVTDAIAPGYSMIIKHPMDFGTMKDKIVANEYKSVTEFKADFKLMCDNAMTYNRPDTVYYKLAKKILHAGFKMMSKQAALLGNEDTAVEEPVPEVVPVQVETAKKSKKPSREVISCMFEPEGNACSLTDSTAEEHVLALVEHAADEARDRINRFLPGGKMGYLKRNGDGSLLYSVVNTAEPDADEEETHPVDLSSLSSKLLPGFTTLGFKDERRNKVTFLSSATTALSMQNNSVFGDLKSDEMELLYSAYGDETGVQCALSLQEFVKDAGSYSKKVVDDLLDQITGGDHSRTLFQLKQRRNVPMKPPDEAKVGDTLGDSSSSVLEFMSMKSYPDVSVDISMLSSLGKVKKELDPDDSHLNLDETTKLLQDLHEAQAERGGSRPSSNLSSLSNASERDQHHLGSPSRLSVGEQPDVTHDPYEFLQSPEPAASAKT
GBA1 R534H: Lysosomal acid glucosylceramidase (GBA1, Homo sapiens, UniProt P04062, R534H)
UniProt Q9SZU7, sequence (whole entry, unmodified, looked up): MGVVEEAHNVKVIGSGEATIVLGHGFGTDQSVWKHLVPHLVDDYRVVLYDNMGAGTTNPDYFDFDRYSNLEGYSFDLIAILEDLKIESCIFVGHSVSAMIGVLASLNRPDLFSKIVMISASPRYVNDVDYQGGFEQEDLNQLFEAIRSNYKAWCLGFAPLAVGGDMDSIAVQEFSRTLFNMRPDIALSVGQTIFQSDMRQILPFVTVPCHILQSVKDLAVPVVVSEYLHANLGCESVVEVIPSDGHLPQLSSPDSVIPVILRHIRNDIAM
UniProt P04062, sequence (whole entry, unmodified, looked up): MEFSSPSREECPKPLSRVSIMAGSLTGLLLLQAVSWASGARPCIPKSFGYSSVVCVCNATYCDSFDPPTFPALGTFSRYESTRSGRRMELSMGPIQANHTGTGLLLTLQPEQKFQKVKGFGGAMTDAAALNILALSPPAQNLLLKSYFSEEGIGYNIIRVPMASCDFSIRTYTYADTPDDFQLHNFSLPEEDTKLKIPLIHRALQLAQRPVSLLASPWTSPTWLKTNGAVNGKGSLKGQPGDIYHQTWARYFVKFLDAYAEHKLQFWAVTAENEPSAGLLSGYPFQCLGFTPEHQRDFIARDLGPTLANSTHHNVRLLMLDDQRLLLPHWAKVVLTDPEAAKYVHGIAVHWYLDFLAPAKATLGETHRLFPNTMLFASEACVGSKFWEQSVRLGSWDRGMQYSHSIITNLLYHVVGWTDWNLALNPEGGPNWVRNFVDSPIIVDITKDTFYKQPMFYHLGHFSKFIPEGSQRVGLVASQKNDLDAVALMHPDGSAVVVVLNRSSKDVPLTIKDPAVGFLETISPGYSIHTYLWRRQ
UniProt P08191, sequence (whole entry, looked up): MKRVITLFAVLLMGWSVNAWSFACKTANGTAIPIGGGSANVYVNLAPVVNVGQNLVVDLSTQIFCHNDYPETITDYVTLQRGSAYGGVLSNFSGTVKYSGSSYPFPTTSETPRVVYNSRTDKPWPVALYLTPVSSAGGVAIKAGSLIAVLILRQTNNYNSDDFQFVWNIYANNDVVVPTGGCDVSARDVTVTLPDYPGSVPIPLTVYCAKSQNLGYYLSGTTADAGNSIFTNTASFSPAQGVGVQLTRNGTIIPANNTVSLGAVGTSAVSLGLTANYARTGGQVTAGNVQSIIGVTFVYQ
UniProt Q02156, sequence (whole entry, looked up): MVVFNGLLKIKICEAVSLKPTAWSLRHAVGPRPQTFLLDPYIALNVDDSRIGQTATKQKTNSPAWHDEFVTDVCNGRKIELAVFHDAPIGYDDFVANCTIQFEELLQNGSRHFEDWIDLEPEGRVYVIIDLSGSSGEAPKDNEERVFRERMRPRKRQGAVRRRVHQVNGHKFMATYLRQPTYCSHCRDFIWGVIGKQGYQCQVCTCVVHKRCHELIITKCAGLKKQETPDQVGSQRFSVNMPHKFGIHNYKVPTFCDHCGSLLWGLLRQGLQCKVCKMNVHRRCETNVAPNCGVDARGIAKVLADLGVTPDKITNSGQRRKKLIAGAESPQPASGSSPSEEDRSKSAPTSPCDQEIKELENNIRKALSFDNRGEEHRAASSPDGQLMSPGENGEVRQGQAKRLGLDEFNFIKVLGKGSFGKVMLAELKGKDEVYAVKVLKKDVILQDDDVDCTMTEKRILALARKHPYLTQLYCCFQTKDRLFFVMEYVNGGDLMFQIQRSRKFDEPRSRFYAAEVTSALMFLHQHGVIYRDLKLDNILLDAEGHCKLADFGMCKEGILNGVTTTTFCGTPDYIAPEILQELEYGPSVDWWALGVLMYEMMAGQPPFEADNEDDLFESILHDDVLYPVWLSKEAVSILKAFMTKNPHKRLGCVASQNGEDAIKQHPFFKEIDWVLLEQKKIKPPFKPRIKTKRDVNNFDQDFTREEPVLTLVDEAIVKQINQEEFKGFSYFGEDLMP
UniProt Q9UBN7, sequence (whole entry, looked up): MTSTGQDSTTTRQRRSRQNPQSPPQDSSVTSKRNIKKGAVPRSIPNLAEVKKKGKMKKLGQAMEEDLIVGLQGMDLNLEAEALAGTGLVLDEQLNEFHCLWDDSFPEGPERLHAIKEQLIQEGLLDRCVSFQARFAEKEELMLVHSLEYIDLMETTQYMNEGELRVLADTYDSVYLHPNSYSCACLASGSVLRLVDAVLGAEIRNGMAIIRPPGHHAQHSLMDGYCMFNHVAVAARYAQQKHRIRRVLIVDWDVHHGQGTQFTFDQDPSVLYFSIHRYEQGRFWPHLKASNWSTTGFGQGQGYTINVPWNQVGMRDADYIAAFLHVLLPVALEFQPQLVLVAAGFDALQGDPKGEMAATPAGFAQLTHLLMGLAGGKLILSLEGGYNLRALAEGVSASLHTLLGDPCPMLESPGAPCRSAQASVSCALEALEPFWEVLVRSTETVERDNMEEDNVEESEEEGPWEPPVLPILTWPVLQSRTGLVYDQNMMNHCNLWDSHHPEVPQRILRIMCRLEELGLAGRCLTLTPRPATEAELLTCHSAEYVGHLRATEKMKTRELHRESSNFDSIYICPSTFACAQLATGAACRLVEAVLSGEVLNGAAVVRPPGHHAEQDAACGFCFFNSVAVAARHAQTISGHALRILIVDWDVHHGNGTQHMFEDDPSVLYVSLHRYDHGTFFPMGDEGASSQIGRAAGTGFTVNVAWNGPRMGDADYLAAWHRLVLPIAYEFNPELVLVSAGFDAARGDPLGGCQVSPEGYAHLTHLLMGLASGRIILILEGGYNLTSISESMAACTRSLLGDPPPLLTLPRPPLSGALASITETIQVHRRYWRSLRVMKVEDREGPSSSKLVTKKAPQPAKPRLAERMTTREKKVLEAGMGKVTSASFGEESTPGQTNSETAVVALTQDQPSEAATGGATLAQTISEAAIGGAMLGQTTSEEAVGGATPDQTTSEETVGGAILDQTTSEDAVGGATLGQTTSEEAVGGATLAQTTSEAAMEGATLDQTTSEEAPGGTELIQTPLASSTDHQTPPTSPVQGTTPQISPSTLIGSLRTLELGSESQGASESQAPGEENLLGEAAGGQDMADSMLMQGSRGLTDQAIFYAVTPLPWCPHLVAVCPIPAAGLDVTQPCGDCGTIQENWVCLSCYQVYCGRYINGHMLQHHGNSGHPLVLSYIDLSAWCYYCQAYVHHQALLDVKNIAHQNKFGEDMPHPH
UniProt P32320, sequence (whole entry, looked up): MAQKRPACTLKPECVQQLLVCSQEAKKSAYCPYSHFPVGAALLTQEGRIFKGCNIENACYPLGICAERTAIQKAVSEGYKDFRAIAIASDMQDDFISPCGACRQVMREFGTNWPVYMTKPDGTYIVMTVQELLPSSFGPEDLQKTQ

SMILES = COc1ccc2c(c1)C1CC(C)(N2)c2c(C)nc3ccc(OC)cc3c21 (centres unmarked); target or system = GAP50; test = binding, surface plasmon resonance; setting = 1:1 binding model; quantity = Kd; value = 3.84 µM
SMILES = OC[C@H]1c2[nH]cnc2[C@H](O)[C@@H](O)[C@@H]1O; target or system = bglA; test = binding, ITC; setting = pH 6.8; quantity = Kd; value = 28.3 µM
SMILES = C=C[C@H]1CN(Cc2ccccn2)C(=O)[C@@H]2CCC[C@H]1N2[S@@+]([O-])c1cc(Cl)cc(Cl)c1; target or system = Peptidyl-prolyl cis-trans isomerase FKBP1B; test = ligand displacement, FP; quantity = Kd; value = 0.394 µM
SMILES = CC1=C[C@H](O)CC(C)(C)[C@H]1/C=C/C(C)=C/C=C/C(C)=C/C=C/C=C(C)/C=C/C=C(C)/C=C/C1=C(C)C[C@@H](O)CC1(C)C; target or system = Beta-lactoglobulin (LGB, Bos taurus, UniProt P02754); test = binding, ITC; quantity = Kd; value = 89.5 µM
SMILES = CCCC/C=C/C(=O)N[C@@H](Cc1cc(F)cc(F)c1)C(=O)N[C@H]1COC(=O)[C@@H]2CCCN2C(=O)[C@H](C)NC(=O)[C@@H]2CCCCN2C(=O)[C@@H]2CCCN2C1=O; target or system = clpP; test = peptidase activity, activator; setting = 30 °C, with: fluorogenic decapeptide 15 µM; quantity = Kd; value = 2.9 ± 0.077 µM
SMILES = CC(=O)NCC1CCCCN1c1nc(N(C)CCc2ncc(C)s2)nc(N2CC3C(CCOc4cc(-c5scnc5C)ccc4CNC(=O)[C@@H]4C[C@@H](O)CN4C(=O)[C@@H](NC(=O)C4(F)CC4)C(C)(C)C)C3C2)n1 (some centres unmarked); target or system = BRD9; test = binding, SPR; quantity = Kd; value = > 20 µM
SMILES = O=C1C2CCCC(C(C(O)CO)CN1Cc1ccccn1)N2S(=O)(=Nc1ccccc1)c1cc(Cl)cc(Cl)c1 (centres unmarked); target or system = Peptidyl-prolyl cis-trans isomerase FKBP1B; test = ligand displacement, FP; quantity = Kd; value = 23.6 µM
SMILES = Cc1c[nH]c2nccc(-c3ccc(C(=O)N[C@@H]4c5c(F)cc(C(F)F)cc5C[C@@H]4O)cn3)c12; target or system = Protein kinase C epsilon type (PRKCE, Homo sapiens, UniProt Q02156); test = binding, competition with immobilised ligand; quantity = Kd; value = 1.01 µM
SMILES = Nc1ncc(-c2cc(-c3cnn(CC(F)(F)F)c3)ncc2F)nc1C(=O)NC1CNCC(F)C1 (centres unmarked); target or system = FGFR1; test = KINOMEscan; setting = 1 µM; scale = relative to: DMSO control; quantity = remaining binding; value = 89%
SMILES = Cc1cc(=O)[nH]c(-n2nc(-c3cccs3)cc2NC(=O)C2(c3ccc(Cl)cc3)CCCC2)n1; target or system = Cystic fibrosis transmembrane conductance regulator, NBD1 (CFTR, Homo sapiens, UniProt P13569, F494N); test = surface plasmon resonance; setting = immobilized NBD1; quantity = Kd; value = 40 µM
SMILES = COC1CN([C@H]2CC[C@H]([C@@]3(C)Oc4c(Cl)cc(C(=O)NCc5c(SC)cc(C)[nH]c5=O)c(C)c4O3)CC2)C1; test = RNA-seq, refers to: FHDC1; test system = human, whole blood; setting = dose not given, 24 h; scale = relative to: pretreatment baseline; quantity = log2 fold change; value = 2.12
SMILES = COc1ccc(C(=O)NO)cc1NC(=O)c1ccc(-c2ccccc2)cc1; target or system = Protein deacetylase HDAC6 (HDAC6, Homo sapiens, UniProt Q9UBN7); test = inhibitor, competition pulldown; test system = SW620 and MV4-11 lysate; setting = 1 h; quantity = Kd; value = > 30.2 µM
SMILES = CC(=O)NCC1CCCCN1c1nc(NCCn2nnc(C)n2)nc(N2CC3C(CCOc4cc(-c5scnc5C)ccc4CNC(=O)[C@@H]4C[C@@H](O)CN4C(=O)[C@@H](NC(=O)C4(F)CC4)C(C)(C)C)C3C2)n1 (some centres unmarked); target or system = BRD9; test = binding, SPR; quantity = Kd; value = > 20 µM
SMILES = C=CC1CN(Cc2ccccn2)C(=O)C2CCCC1N2S(=O)(=NC1C=CCCC1)c1cc(Cl)cc(Cl)c1 (mixture of isomers); target or system = Peptidyl-prolyl cis-trans isomerase FKBP1B; test = competitive fluorescence polarization; setting = protein 10 nM, with: tracer 1 nM; quantity = Kd; value = 4.03 ± 0.95 µM
SMILES = C#CCN1CCN(c2nc(N3CCC(CCOc4cc(-c5scnc5C)ccc4CNC(=O)[C@@H]4C[C@@H](O)CN4C(=O)[C@@H](NC(=O)C4(F)CC4)C(C)(C)C)CC3)nc(N3CCN(C(=O)C4CC4)C3)n2)CC1=O; target or system = BRD9; test = binding, SPR; quantity = Kd; value = 1.04 µM
SMILES = OC[C@H]1[C@@H](O)[C@H](O)[C@@H](O)CN1CCCCOCCC12CC3CC(CC(C3)C1)C2; target or system = GBA1 R534H; test = inhibitor, 4MU-β-D-glucopyranoside; setting = with: 4MU-β-D-glucopyranoside; quantity = IC50; value = 33.9 µM
SMILES = Nc1ncnc2c1ncn2C1OC(CN(CCCC2CNCc3c2ccc(Cl)c3Cl)CCC(N)C(=O)O)C(O)C1O (mixture of isomers); target or system = Phenylethanolamine N-methyltransferase (PNMT, Homo sapiens, UniProt P11086); test = ITC; setting = pH 8.0, 25 °C, first site, without SAH; quantity = Kd; value = 0.02 ± 0.001 µM
SMILES = Cc1ncsc1-c1ccc(CNC(=O)[C@@H]2C[C@@H](O)CN2C(=O)[C@@H](NC(=O)C2(F)CC2)C(C)(C)C)c(OCCC2CCN(c3nc(N(C)CCNC(=O)C(C)C)nc(N4CCn5nnc(CO)c5C4)n3)CC2)c1; target or system = BRD9; test = binding, SPR; quantity = Kd; value = 7 µM
SMILES = CCCCCCCO[C@H]1CO[C@H](CO)[C@@H](O)[C@H](O)[C@@H]1O; target or system = Type 1 fimbrin D-mannose specific adhesin, lectin domain (fimH, Escherichia coli K-12, UniProt P08191); test = binding, isothermal titration calorimetry; setting = 37 °C, individual titrations; quantity = Kd; value = 0.751 µM and 0.575 µM
SMILES = OC[C@@H]1[C@@H](O)[C@H](O)[C@@H](O)c2nccn21; target or system = bglA; test = binding, ITC; setting = pH 6.8; quantity = Kd; value = 0.14 µM
SMILES = CCOC(=O)CCCc1cccc2c(-c3ccc(Oc4ccccc4)cc3)ccnc12; target or system = GAP50; test = binding, surface plasmon resonance; setting = 1:1 binding model; quantity = Kd; value = 47.4 µM
SMILES = CSCC[C@@H]1NC(=O)[C@@H]2CSCCC(=O)N3CN(CN(C3)C(=O)CCSC[C@H](N)C(=O)N3CCC[C@H]3C(=O)N[C@@H](Cc3cccc4ccccc34)C(=O)N[C@H](CC(=O)O)C(=O)N2)C(=O)CCSC[C@@H](C(N)=O)NC(=O)[C@H](Cc2c[nH]c3ccccc23)NC(=O)[C@@H]2C[C@@H](O)CN2C(=O)[C@@H]2CCCN2C(=O)[C@H]([C@@H](C)O)NC(=O)[C@H](CO)NC(=O)[C@H](Cc2c[nH]c3ccccc23)NC(=O)[C@H](CC(=O)O)NC(=O)[C@H](CCCCNC(=N)N)NC1=O; target or system = Nectin-4 (Homo sapiens, UniProt Q96NY8); test = binding, SPR; quantity = Kd; value = 0.000694 µM
SMILES = Cn1ncc2cc(-c3cncc(Cl)c3N3CCC4(CCNC4=O)CC3)ccc21; target or system = Cytidine deaminase (CDA, Homo sapiens, UniProt P32320); test = cell-free assay; setting = lysate; quantity = Kd; value = > 8.24 µM
SMILES = CC(=O)NCCN(c1nc(N2CC(Oc3ccccc3)C2)nc(N2CC3C(CCOc4cc(-c5scnc5C)ccc4CNC(=O)[C@@H]4C[C@@H](O)CN4C(=O)[C@@H](NC(=O)C4(F)CC4)C(C)(C)C)C3C2)n1)C(C)C (some centres unmarked); target or system = BRD9; test = binding, SPR; quantity = Kd; value = > 20 µM
SMILES = CCOC(=O)c1ccc2c(c1)C1CC(C)(N2)c2c(C)nc3ccc(C(=O)OCC)cc3c21 (single isomer, unassigned); target or system = GAP50; test = binding, surface plasmon resonance; setting = 1:1 binding model; quantity = Kd; value = 202 µM
SMILES = CC(=O)NCCN(c1nc(N2CC3C(CCOc4cc(-c5scnc5C)ccc4CNC(=O)[C@@H]4C[C@@H](O)CN4C(=O)[C@@H](NC(=O)C4(F)CC4)C(C)(C)C)C3C2)nc(N2CC(n3ccnc3)C2)n1)C(C)C (some centres unmarked); target or system = BRD9; test = binding, SPR; quantity = Kd; value = > 20 µM
SMILES = Cc1cccc2c1N(C(=O)n1ccnn1)CC2; target or system = KAI2 (Arabidopsis thaliana, UniProt Q9SZU7, F194A); test = ITC; setting = F194A mutant; quantity = Kd; value = 556 µM and 329 µM
SMILES = Cc1nn(-c2cccc(N)c2)c(=O)c2cnc(Nc3ccc(N4CCNCC4)cc3)nc12; target or system = Maternal embryonic leucine zipper kinase (MELK, Homo sapiens, UniProt Q14680); test = enzyme activity, inhibitor; quantity = IC50; value = 1.48 µM
SMILES = C=CC(=O)N1C[C@H](C)N(c2nc(OC[C@@]34CCCN3C[C@H](F)C4)nc3c(F)c(-c4ccc(F)c5sc(N)c(C#N)c45)c(C(F)(F)F)cc23)C[C@H]1C; target or system = GTPase KRas, GDP-bound (KRAS, Homo sapiens, UniProt P01116, Q61R); test = SPR; quantity = Kd; value = 0.000925 ± 0.00019 µM
SMILES = CCCC/C=C/C(=O)N[C@@H](Cc1cc(F)cc(F)c1)C(=O)N[C@@H]1C(=O)N2CCC[C@H]2C(=O)N(C)[C@@H](C)C(=O)N[C@@H](C)C(=O)N2CCC[C@H]2C(=O)O[C@H]1C; target or system = clpP; test = peptidase activity, activator; setting = 30 °C, with: fluorogenic decapeptide 15 µM; quantity = Kd; value = 1.3 ± 0.1 µM
SMILES = CCc1nc2cc3ccccc3cc2cc1C(=O)N1CCC[C@H]1C(=O)N[C@@H](C/C=C/C[C@H](NC(=O)[C@@H]1CCCN1C(=O)c1cc2cc3ccccc3cc2nc1CC)C(=O)N[C@@H](CCCCN)C(=O)NCCCN)C(=O)N[C@@H](CCCCN)C(=O)NCCCN; target or system = (CUG)4 RNA; test = SPR; quantity = Kd; value = 0.028 µM
SMILES = CCCC/C=C/C(=O)N[C@@H](Cc1cc(F)cc(F)c1)C(=O)N[C@H]1COC(=O)[C@@H]2CCCN2C(=O)[C@H](C)NC(=O)[C@@H]2C[C@@H](C)CCN2C(=O)[C@@H]2CCCN2C1=O; target or system = clpP; test = peptidase activity, activator; setting = 30 °C, with: fluorogenic decapeptide 15 µM; quantity = Kd; value = 3 ± 0.1 µM
SMILES = CCc1nc2cc3ccccc3cc2cc1C(=O)N1CCC[C@H]1C(=O)N[C@@H](CCC/C=C/CCC[C@H](NC(=O)[C@@H]1CCCN1C(=O)c1cc2cc3ccccc3cc2nc1CC)C(=O)N[C@@H](CCCCN)C(=O)NCCCN)C(=O)N[C@@H](CCCCN)C(=O)NCCCN; target or system = (CUG)4 RNA; test = SPR; quantity = Kd; value = 0.069 µM
SMILES = OC[C@H]1[C@@H](O)[C@H](O)[C@@H](O)CN1CCCCCOCc1ccc2ccccc2c1; target or system = GBA1 R534H; test = inhibitor, 4MU-β-D-glucopyranoside; setting = with: 4MU-β-D-glucopyranoside; quantity = IC50; value = 50 µM
SMILES = Cc1cc(C(c2ccc(Cl)cc2)c2ccc(Cl)cc2)c2nccc(C)c2c1; target or system = GAP50; test = binding, surface plasmon resonance; setting = 1:1 binding model; quantity = Kd; value = 1.91 µM

Some of these lines once more:
SMILES = Nc1ncc(-c2cc(-c3cnn(CC(F)(F)F)c3)ncc2F)nc1C(=O)NC1CNCC(F)C1 (centres unmarked); target or system = FGFR1; test = KINOMEscan; setting = 1 µM; scale = relative to: DMSO control; quantity = remaining binding; value = 89%
SMILES = Cc1cc(=O)[nH]c(-n2nc(-c3cccs3)cc2NC(=O)C2(c3ccc(Cl)cc3)CCCC2)n1; target or system = Cystic fibrosis transmembrane conductance regulator, NBD1 (CFTR, Homo sapiens, UniProt P13569, F494N); test = surface plasmon resonance; setting = immobilized NBD1; quantity = Kd; value = 40 µM
SMILES = COC1CN([C@H]2CC[C@H]([C@@]3(C)Oc4c(Cl)cc(C(=O)NCc5c(SC)cc(C)[nH]c5=O)c(C)c4O3)CC2)C1; test = RNA-seq, refers to: FHDC1; test system = human, whole blood; setting = dose not given, 24 h; scale = relative to: pretreatment baseline; quantity = log2 fold change; value = 2.12
SMILES = COc1ccc(C(=O)NO)cc1NC(=O)c1ccc(-c2ccccc2)cc1; target or system = Protein deacetylase HDAC6 (HDAC6, Homo sapiens, UniProt Q9UBN7); test = inhibitor, competition pulldown; test system = SW620 and MV4-11 lysate; setting = 1 h; quantity = Kd; value = > 30.2 µM
SMILES = CC(=O)NCC1CCCCN1c1nc(NCCn2nnc(C)n2)nc(N2CC3C(CCOc4cc(-c5scnc5C)ccc4CNC(=O)[C@@H]4C[C@@H](O)CN4C(=O)[C@@H](NC(=O)C4(F)CC4)C(C)(C)C)C3C2)n1 (some centres unmarked); target or system = BRD9; test = binding, SPR; quantity = Kd; value = > 20 µM
